Results of several laboratories.
Every numbered part comes from another study and shows a few of its results, in no order. Substitutions count along the parent as printed.

Study 1 — method: protein binding microarray; molecule type: double-stranded DNA, one strand shown; medium: in vitro; concentration: not given; relative to: not given; reading: higher = stronger binding
Target: Histone acetyltransferase KAT6A, winged helix 1, GST fusion (KAT6A, Homo sapiens, UniProt Q92794, residues 1-85)
Notes: 8-mer, flanks averaged, mean of 2 arrays, mostly near background
Residues (chain): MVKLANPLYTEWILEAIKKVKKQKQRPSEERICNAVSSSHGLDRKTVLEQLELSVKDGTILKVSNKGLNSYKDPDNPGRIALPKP
| Oligonucleotide | E-score |
| --- | --- |
| ATACGGAC | 0.141 |
| AGCGGCCT | 0.285 |
| TATCAGGA | -0.192 |
| AAAGGTAC | -0.152 |
| CGGCGCCC | 0.426 |
| CGTGATTA | -0.0397 |
| CCATTAAC | -0.103 |
| GTGGCCGA | 0.117 |

Study 2 — method: protein-binding microarray; molecule type: double-stranded DNA, one strand shown; medium: in vitro; concentration: 2200 nM top; notes: 60-bp whole probe; with: salmon DNA 0.4 mg/ml; relative to: random background probes; reading: higher = stronger binding; constant ends, left off below: GCCTAGCAC … GTCTTGATTCGCTTGACGCTGCTG
Target: Interferon regulatory factor 7, full length, phosphomimetic (IRF7, Homo sapiens, UniProt Q92985, residues 1-503, S471D/S472D/S475D/S476D/S477D/S483D/S484D/S487D)
Construct (chain): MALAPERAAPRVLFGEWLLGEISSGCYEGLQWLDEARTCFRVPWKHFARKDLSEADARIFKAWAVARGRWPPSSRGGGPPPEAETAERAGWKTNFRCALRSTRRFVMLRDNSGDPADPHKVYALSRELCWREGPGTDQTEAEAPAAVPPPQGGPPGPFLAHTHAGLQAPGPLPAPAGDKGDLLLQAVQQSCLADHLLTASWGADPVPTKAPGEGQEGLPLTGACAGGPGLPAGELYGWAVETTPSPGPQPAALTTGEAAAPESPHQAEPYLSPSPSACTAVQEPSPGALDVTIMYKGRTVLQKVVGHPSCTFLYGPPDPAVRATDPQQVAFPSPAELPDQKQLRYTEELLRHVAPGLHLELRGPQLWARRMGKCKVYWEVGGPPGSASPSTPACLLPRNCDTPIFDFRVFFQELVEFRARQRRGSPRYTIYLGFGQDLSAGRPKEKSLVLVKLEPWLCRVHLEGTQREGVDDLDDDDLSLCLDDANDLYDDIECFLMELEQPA
| Oligonucleotide | fitted relative affinity [z-score] |
| --- | --- |
| TGTGCTTTCCTGATGACCCTGTGCTAG | 2.09 |
| TTAGGTTTCCTTCTCCTCTAGTGCTAG | 2.62 |
| GGCGGACTGGGGACTGGGGACGTGCTA | -1.15 |
| GACGGAATGGACTTTCGGGACGTGCTA | 2.39 |
| TTAGGTCTCCTCTTCCTTTAGTGCTAG | 1.16 |
| TCAAACTTCTCCACTGAAACTGTGCTA | 0.197 |
| GACGGACTGTGTCTCGGGACGTGCTAG | -0.431 |
| TTAGGTTTCGGACTGGGATAGTGCTAG | 3.15 |

Other studies, line by line
P1: viral docking peptide; PTARRRLLHDLDT; partner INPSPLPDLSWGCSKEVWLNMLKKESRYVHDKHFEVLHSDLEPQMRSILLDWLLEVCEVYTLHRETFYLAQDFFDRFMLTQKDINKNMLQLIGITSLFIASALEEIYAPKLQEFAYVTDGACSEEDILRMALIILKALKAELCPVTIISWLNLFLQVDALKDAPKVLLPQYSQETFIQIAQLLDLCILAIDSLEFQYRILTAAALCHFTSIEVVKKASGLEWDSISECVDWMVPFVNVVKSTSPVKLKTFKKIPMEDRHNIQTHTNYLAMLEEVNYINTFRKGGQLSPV
P2: PafA, mature enzyme, eGFP fusion (Elizabethkingia meningoseptica, UniProt Q9KJX5); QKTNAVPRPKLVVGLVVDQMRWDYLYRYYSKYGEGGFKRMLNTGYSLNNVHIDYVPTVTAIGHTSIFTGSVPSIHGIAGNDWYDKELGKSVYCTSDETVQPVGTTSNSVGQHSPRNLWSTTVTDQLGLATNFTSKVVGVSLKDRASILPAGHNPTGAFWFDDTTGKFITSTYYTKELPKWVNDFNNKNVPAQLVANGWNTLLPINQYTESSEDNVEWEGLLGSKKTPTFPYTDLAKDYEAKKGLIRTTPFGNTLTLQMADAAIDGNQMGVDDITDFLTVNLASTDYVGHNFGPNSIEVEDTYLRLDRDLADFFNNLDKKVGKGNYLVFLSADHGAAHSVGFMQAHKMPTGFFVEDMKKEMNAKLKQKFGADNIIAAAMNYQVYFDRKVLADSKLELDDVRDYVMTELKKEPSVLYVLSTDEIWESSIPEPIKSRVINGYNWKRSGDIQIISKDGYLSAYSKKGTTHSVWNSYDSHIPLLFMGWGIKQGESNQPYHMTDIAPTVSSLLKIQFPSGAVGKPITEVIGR
| Variant | target | test | test system | setting | how to read | measurement | value |
| --- | --- | --- | --- | --- | --- | --- | --- |
| P1 L11A | CCNE2, cyclin fold, Cln2 fusion (human) | yeast growth competition, sequencing | yeast | weak parent motif | relative to: not given, higher = stronger binding | normalised enrichment score | 0.579 |
| P2 I245V | vanadate, free oxyanion | microfluidic competitive inhibition | in vitro, cell-free expressed | not given, derived from inhibition constants, unchanged parent 676 nM | lower = stronger binding | oxyanion analog dissociation constant | 719 nM |

Excerpt of the above (other studies, line by line):
| Variant | target | test | test system | setting | how to read | measurement | value |
| --- | --- | --- | --- | --- | --- | --- | --- |
| P2 I245V | vanadate, free oxyanion | microfluidic competitive inhibition | in vitro, cell-free expressed | not given, derived from inhibition constants, unchanged parent 676 nM | lower = stronger binding | oxyanion analog dissociation constant | 719 nM |
| P1 L11A | CCNE2, cyclin fold, Cln2 fusion (human) | yeast growth competition, sequencing | yeast | weak parent motif | relative to: not given, higher = stronger binding | normalised enrichment score | 0.579 |
